# Results gathered from unrelated publications.
# Every numbered part comes from another study and shows a few of its results, in no order. Several values in a cell are separate wells, animals, samples, runs or records.
# Sequence of UniProt Q9H4B4 (whole entry, looked up): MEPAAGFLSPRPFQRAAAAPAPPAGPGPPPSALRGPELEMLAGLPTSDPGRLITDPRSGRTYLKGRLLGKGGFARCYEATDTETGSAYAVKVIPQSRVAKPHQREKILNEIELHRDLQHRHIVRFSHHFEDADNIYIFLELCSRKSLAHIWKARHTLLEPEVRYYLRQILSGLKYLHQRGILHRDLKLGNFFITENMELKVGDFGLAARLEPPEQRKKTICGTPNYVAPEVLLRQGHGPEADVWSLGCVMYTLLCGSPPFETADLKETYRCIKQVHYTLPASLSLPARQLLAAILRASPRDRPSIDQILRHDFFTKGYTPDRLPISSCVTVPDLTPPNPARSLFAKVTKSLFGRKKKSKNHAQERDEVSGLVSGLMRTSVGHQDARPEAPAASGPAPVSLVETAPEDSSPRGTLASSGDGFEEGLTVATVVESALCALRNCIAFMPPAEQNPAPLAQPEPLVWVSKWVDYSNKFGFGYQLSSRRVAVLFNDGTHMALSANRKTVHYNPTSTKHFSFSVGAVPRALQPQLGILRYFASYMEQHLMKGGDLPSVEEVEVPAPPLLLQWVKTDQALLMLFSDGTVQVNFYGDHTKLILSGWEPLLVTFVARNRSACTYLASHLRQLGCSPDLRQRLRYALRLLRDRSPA
# Sequence of UniProt Q96L34 (whole entry, looked up): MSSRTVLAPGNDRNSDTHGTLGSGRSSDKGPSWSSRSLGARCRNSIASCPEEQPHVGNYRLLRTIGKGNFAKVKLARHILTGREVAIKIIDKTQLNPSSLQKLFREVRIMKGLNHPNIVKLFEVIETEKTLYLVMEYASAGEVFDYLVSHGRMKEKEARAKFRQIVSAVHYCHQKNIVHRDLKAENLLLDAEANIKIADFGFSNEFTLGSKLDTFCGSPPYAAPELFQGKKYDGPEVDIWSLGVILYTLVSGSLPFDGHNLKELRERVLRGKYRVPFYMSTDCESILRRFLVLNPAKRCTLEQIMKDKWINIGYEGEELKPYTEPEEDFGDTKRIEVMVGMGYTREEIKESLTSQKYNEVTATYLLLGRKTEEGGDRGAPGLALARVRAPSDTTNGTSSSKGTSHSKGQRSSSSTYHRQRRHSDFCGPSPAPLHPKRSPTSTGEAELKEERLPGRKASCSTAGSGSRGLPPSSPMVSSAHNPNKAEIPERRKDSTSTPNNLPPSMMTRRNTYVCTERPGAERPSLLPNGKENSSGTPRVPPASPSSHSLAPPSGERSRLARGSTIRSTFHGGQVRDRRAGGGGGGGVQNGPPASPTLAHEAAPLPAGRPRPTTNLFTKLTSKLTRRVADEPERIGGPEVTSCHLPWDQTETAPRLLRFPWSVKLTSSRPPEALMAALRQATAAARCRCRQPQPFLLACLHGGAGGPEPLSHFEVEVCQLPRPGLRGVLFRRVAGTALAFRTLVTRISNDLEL
# Sequence of UniProt P45984 (whole entry, looked up): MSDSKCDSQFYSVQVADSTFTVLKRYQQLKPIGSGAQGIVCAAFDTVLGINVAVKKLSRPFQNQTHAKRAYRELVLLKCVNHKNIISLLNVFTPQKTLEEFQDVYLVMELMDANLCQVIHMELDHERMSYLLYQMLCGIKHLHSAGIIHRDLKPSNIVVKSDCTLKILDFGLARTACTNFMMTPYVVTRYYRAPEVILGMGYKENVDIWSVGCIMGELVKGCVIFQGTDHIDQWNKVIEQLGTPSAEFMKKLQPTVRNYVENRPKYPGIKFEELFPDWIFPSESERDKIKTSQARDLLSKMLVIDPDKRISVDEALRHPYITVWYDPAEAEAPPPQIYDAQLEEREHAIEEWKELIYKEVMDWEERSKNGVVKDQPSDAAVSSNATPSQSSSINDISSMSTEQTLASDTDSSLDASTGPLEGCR
# Sequence of UniProt Q8N752 (whole entry, looked up): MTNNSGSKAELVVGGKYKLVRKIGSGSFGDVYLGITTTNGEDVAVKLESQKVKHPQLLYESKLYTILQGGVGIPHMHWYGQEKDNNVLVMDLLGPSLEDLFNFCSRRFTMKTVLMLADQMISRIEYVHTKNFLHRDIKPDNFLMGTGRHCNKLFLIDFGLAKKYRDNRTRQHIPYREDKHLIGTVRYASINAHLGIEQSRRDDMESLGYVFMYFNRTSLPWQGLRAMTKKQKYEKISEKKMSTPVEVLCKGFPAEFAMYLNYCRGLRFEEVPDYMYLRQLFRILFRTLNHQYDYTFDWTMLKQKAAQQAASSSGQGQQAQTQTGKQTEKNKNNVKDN
# Sequence of UniProt P19525 (whole entry, looked up): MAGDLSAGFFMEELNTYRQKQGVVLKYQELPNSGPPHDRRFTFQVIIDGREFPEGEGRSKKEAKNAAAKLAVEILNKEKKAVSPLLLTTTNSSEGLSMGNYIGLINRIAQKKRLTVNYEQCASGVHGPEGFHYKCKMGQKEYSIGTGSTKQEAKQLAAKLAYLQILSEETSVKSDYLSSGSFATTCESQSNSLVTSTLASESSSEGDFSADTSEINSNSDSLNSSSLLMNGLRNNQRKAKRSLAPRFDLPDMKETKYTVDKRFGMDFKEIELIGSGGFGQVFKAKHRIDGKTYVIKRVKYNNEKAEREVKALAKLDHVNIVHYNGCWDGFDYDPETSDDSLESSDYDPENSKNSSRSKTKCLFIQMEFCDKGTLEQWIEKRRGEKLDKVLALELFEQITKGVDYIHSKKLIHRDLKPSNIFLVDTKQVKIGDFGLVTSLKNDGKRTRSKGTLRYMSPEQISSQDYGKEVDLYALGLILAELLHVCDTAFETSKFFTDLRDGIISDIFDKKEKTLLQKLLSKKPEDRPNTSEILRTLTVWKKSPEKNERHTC

# Block 1 — read-out: binding; technique: competition with immobilised ligand; tested at: 1 µM
# SMILES: COc1cc(-c2nc3ccc(C(=O)NCCCN4CCN(c5cccc(C)c5C)CC4)cc3n2C2CCC2)cc(OC)c1OC
target,remaining binding [%]
"Serine/threonine-protein kinase 32B (STK32B, Homo sapiens, UniProt Q9NY57)",78
"Tyrosine-protein kinase ABL1, phosphorylated (ABL1, Homo sapiens, UniProt P00519, H396P)",87
"Serine/threonine-protein kinase pim-3 (PIM3, Homo sapiens, UniProt Q86V86)",92
"Mast/stem cell growth factor receptor Kit (KIT, Homo sapiens, UniProt P10721, D816V)",100
"Serine/threonine-protein kinase MARK2 (MARK2, Homo sapiens, UniProt Q7KZI7)",88
"Rhodopsin kinase GRK7 (GRK7, Homo sapiens, UniProt Q8WTQ7)",94
"Serine/threonine-protein kinase PLK3 (PLK3, Homo sapiens, UniProt Q9H4B4)",78
"Mitogen-activated protein kinase 11 (MAPK11, Homo sapiens, UniProt Q15759)",85
"G protein-coupled receptor kinase 3 (GRK3, Homo sapiens, UniProt P35626)",100
"Interleukin-1 receptor-associated kinase 4 (IRAK4, Homo sapiens, UniProt Q9NWZ3)",94
"Dual specificity protein kinase CLK1 (CLK1, Homo sapiens, UniProt P49759)",96
"Mitogen-activated protein kinase kinase kinase 10 (MAP3K10, Homo sapiens, UniProt Q02779)",90
"cGMP-dependent protein kinase 2 (PRKG2, Homo sapiens, UniProt Q13237)",71
"Mitogen-activated protein kinase kinase kinase 15 (MAP3K15, Homo sapiens, UniProt Q6ZN16)",78
"Vascular endothelial growth factor receptor 3 (FLT4, Homo sapiens, UniProt P35916)",88
"RAF proto-oncogene serine/threonine-protein kinase (RAF1, Homo sapiens, UniProt P04049)",90
"Cyclin-G-associated kinase (GAK, Homo sapiens, UniProt O14976)",100
"Protein kinase C theta type (PRKCQ, Homo sapiens, UniProt Q04759)",87
"Hepatocyte growth factor receptor (MET, Homo sapiens, UniProt P08581, Y1235D)",100
"Casein kinase I isoform alpha-like (CSNK1A1L, Homo sapiens, UniProt Q8N752)",100
"Mitogen-activated protein kinase 9 (MAPK9, Homo sapiens, UniProt P45984)",77
"Interferon-induced, double-stranded RNA-activated protein kinase (EIF2AK2, Homo sapiens, UniProt P19525)",100
"Phosphatidylinositol 4,5-bisphosphate 3-kinase catalytic subunit alpha isoform (PIK3CA, Homo sapiens, UniProt P42336, H1047L)",84
"Serine/threonine-protein kinase tousled-like 1 (TLK1, Homo sapiens, UniProt Q9UKI8)",97
"Homeodomain-interacting protein kinase 1 (HIPK1, Homo sapiens, UniProt Q86Z02)",83

# Block 2 — read-out: enzyme activity; mode: inhibitor; technique: Ub-TR-FRET; matrix: HECT domain; tested at: 3.704 µM; direction: higher = more chain formation
# Target: E3 ubiquitin-protein ligase NEDD4, HECT domain (Homo sapiens, UniProt P46934)
# Residues (P46934 938-1319, limits assumed): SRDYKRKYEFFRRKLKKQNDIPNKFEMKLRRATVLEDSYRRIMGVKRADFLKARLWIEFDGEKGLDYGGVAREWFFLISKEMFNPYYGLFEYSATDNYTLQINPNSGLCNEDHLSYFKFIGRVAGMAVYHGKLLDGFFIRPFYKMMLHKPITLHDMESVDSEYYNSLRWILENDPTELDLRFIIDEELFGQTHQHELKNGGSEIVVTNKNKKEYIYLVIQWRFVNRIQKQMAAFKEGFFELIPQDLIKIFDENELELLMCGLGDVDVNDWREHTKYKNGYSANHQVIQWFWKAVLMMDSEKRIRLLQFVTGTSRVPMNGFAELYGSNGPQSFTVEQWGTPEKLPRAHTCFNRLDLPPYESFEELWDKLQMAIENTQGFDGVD
SMILES,ubiquitin chain formation AUC
CN(C)C/C=C/C(=O)NCCCN1c2ccccc2CCc2ccc(Cl)cc21,125000 a.u. and 124000 a.u. and 126000 a.u.
CNC(=O)/C=C/CNCCCN1c2ccccc2CCc2ccc(Cl)cc21.Cl,123000 a.u. and 124000 a.u. and 125000 a.u.
CCOC(=O)/C=C/CNCCCCN1c2cc(Cl)ccc2CCc2cnn(C)c21.O=C(O)/C=C\C(=O)O,8070 a.u. and 16000 a.u. and 7530 a.u. and 7700 a.u.
CCOC(=O)/C=C/CNCCCCN1c2ccccc2COc2ccc(Cl)cc21.O=C(O)/C=C\C(=O)O,10900 a.u. and 11900 a.u. and 11200 a.u.
CONC(=O)/C=C/CNCCCCN1c2ccccc2CCc2ccc(Cl)cc21.O=C(O)/C=C\C(=O)O,7380 a.u. and 9440 a.u. and 8490 a.u. and 9190 a.u. and 9360 a.u. and 8410 a.u.
CNC(=O)/C=C/CNCCCCN1c2ccccc2CCc2ccc(Cl)cc21.Cl,78800 a.u. and 77700 a.u. and 75000 a.u. and 63600 a.u. and 60700 a.u. and 61700 a.u.
CCOC(=O)/C=C/CNCCCCN1c2cc(Cl)ccc2COc2ccccc21.O=C(O)/C=C\C(=O)O,12300 a.u. and 12000 a.u. and 14200 a.u.
CCOC(=O)/C=C/CNCCCN1c2ccccc2CCc2ccc(Cl)cc21,11200 a.u. and 11700 a.u. and 9850 a.u.
Cl.NC(=O)/C=C/CNCCCN1c2ccccc2CCc2ccc(Cl)cc21,129000 a.u. and 131000 a.u. and 130000 a.u.
CCOC(=O)/C=C/CNCCCCN1c2ccccc2C(=O)N(C)c2ccc(Cl)cc21.O=C(O)/C=C\C(=O)O,32000 a.u. and 40500 a.u. and 42800 a.u.

# Block 3
# SMILES: Cc1ncc(-c2cc3c(C#N)c(-c4c(C)ccc(O)c4C)cnc3[nH]2)cn1
# Target: Membrane-associated tyrosine- and threonine-specific cdc2-inhibitory kinase (PKMYT1, Homo sapiens, UniProt Q99640)
# Sequence of UniProt Q99640 (whole entry, looked up): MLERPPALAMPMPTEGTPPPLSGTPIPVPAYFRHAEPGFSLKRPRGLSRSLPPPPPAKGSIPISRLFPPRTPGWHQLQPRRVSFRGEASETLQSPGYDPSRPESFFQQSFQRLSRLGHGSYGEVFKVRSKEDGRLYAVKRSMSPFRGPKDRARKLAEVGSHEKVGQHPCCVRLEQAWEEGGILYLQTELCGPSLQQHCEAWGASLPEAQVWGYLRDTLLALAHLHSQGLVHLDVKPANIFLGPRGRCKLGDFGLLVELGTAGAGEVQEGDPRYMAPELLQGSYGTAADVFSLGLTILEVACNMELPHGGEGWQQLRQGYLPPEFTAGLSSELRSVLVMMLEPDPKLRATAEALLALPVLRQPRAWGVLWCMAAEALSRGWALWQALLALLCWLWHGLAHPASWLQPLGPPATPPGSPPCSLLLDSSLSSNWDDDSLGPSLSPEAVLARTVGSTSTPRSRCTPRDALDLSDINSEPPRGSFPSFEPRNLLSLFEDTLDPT
read-out,technique,tested at,inhibition [%]
,,1.111 µM,100
cell-free assay,TR-FRET,4.57 nM,83
,,3.333 µM,102
cell-free assay,TR-FRET,1.111 µM,102
cell-free assay,TR-FRET,10 µM,105
,,0.00152 µM,48.2
,,0.1235 µM,99.5
cell-free assay,TR-FRET,41.15 nM,105

# Block 4 — technique: DNA microarray; relative to: untreated cells
# SMILES: COCC1CC2C(CCC3(C)C(O)CCC23)c2ccc(O)cc21 (centres unmarked)
cell line,item,tested at,notes,mRNA level ratio
A549,CDC25B,50 µM,,1.2
A549,MCM6,50 µM,,0.865
A549,ORC1L,100 µM,,0.485
SK-OV-3,AURKA,concentration not given,lower dose arm,0.872
A549,GDF15,100 µM,,6.7
PANC-1,GAPDH,concentration not given,lower dose arm,1.42 and 1.3 and 1.36 and 1.37 and 1.35
A549,ORC1L,50 µM,,0.693
A549,CALR3,100 µM,,1.97
SK-OV-3,CDC25B,concentration not given,lower dose arm,1.13
A549,GINS1,50 µM,,0.735
PANC-1,ADAMTS8,concentration not given,higher dose arm,0.808
SK-OV-3,RFC3,concentration not given,lower dose arm,1.07
A549,IL28A,100 µM,,3.25
A549,MCM6,100 µM,,0.674
A549,IL20RA,100 µM,,12.2
PANC-1,CCL22,concentration not given,higher dose arm,1
PANC-1,ISG20L1,concentration not given,higher dose arm,0.819
PANC-1,KIF20A,concentration not given,higher dose arm,0.282 and 0.268 and 0.271 and 0.277
PANC-1,GADD45A,concentration not given,higher dose arm,1.28

# Block 5 — read-out: thermal unfolding; technique: differential scanning fluorimetry; tested at: 5.5 µM; direction: higher = more unfolded
# Compound: C[C@@H]1CN(c2ccc(-c3cc(C(=O)NCCOCCOCCOCCOCCOCCOCCNC(=O)/C=C/c4[nH]cc(C(=O)N[C@@H](CC(N)=O)c5ccc(F)c(Cl)c5)c4-c4ccc(Cl)cc4F)ccc3F)cc2NC(=O)c2ccc(F)cc2C(F)(F)F)C[C@H](C)N1C
# DCAF1: DDB1- and CUL4-associated factor 1 (DCAF1, Homo sapiens, UniProt Q9Y4B6)
# Sequence of UniProt Q9Y4B6 (whole entry, looked up): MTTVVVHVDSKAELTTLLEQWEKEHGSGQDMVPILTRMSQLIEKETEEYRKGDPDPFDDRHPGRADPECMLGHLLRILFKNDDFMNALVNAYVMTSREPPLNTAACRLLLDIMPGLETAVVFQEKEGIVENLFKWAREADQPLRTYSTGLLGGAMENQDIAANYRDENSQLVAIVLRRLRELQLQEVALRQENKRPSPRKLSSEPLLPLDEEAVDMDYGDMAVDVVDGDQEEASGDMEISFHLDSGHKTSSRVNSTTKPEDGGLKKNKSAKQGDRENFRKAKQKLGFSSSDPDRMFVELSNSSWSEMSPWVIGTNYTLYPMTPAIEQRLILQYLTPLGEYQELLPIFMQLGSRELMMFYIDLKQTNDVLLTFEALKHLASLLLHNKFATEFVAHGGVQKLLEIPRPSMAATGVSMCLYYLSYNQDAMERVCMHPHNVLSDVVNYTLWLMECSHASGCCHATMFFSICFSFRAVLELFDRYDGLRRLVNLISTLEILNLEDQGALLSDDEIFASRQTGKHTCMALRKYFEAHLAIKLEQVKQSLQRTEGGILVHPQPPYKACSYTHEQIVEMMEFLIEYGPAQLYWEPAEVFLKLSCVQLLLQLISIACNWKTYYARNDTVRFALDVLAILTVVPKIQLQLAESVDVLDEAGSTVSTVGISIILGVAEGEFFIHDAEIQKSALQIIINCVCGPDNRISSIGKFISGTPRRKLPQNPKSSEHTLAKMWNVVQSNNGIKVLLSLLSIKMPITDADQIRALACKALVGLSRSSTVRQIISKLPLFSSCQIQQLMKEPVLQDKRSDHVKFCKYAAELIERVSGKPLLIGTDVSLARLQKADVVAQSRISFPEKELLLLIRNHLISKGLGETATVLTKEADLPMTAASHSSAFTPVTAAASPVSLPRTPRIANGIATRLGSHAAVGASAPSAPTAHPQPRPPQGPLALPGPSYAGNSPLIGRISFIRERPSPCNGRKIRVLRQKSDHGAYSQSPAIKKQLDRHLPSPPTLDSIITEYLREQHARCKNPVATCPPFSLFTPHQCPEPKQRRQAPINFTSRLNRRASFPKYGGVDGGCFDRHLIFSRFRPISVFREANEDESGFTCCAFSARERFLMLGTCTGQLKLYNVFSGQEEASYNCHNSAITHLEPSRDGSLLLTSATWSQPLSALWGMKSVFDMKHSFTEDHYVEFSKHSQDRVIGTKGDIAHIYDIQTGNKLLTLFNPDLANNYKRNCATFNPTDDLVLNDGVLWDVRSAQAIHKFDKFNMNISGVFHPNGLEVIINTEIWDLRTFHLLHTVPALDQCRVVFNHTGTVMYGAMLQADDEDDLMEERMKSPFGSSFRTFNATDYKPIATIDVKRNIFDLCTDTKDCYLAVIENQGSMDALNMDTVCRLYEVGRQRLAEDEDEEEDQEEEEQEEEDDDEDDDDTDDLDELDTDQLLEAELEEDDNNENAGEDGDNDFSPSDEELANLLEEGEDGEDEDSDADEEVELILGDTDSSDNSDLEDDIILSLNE
# WDR5: WD repeat-containing protein 5 (WDR5, Homo sapiens, UniProt P61964)
target,temperature,SYPRO Orange fluorescence [a.u.]
DCAF1,53.81 °C,23900
DCAF1,32.8 °C,9220
WDR5,87.81 °C,58100
WDR5,49.2 °C,16000
WDR5,39 °C,13900
WDR5,68.01 °C,21700
WDR5,78.41 °C,61400
DCAF1,41.2 °C,12300
DCAF1,54.41 °C,25400
DCAF1,29.6 °C,8270
DCAF1,52.41 °C,21200

# Block 6 — read-out: kinase activity
# Structure (SMILES): CNc1ncc2cc(-c3cc(OC)cc(OC)c3Cl)c(=O)n(CCc3ccc(NC(=O)C(C#N)=CC(C)(C)N4CCOCC4)cc3)c2n1
target,tested at,inhibition
"Mitogen-activated protein kinase 3 (MAPK3, Homo sapiens, UniProt P27361)",1 µM,-8%
"Activated CDC42 kinase 1 (TNK2, Homo sapiens, UniProt Q07912)",0.1 µM,-1%
"Phosphatidylinositol 4-kinase beta (PI4KB, Homo sapiens, UniProt Q9UBF8)",1 µM,-2%
"Casein kinase I isoform gamma-1 (CSNK1G1, Homo sapiens, UniProt Q9HCP0)",0.1 µM,1%
"Cyclin-dependent kinase 2 (CDK2, Homo sapiens, UniProt P24941)",1 µM,6%
"Cyclin-dependent kinase 2, with cyclin E (CDK2, Homo sapiens, UniProt P24941)",0.1 µM,1%
"Leucine-rich repeat serine/threonine-protein kinase 2 (LRRK2, Homo sapiens, UniProt Q5S007, G2019S)",1 µM,-5%
"Tyrosine-protein kinase FRK (FRK, Homo sapiens, UniProt P42685)",1 µM,6%
"Insulin-like growth factor 1 receptor (IGF1R, Homo sapiens, UniProt P08069)",1 µM,-9%
"Serine/threonine-protein kinase BRSK1 (BRSK1, Homo sapiens, UniProt Q8TDC3)",1 µM,1%
"Serine/threonine-protein kinase PLK3 (PLK3, Homo sapiens, UniProt Q9H4B4)",0.1 µM,-2%
"Protein-tyrosine kinase 2-beta (PTK2B, Homo sapiens, UniProt Q14289)",0.1 µM,-1%
"Ribosomal protein S6 kinase alpha-6 (RPS6KA6, Homo sapiens, UniProt Q9UK32)",1 µM,4%
"Serine/threonine-protein kinase pim-3 (PIM3, Homo sapiens, UniProt Q86V86)",1 µM,-2%
"Mitogen-activated protein kinase 12 (MAPK12, Homo sapiens, UniProt P53778)",1 µM,4%
"Ephrin type-A receptor 4 (EPHA4, Homo sapiens, UniProt P54764)",0.1 µM,-3%
"MAP kinase-interacting serine/threonine-protein kinase 2 (MKNK2, Homo sapiens, UniProt Q9HBH9)",1 µM,0%
"Dual specificity tyrosine-phosphorylation-regulated kinase 1A (DYRK1A, Homo sapiens, UniProt Q13627)",0.1 µM,-7%
"MAP/microtubule affinity-regulating kinase 4 (MARK4, Homo sapiens, UniProt Q96L34)",0.1 µM,0%
"Serine/threonine-protein kinase N2 (PKN2, Homo sapiens, UniProt Q16513)",0.1 µM,0%
"Serine/threonine-protein kinase BRSK2 (BRSK2, Homo sapiens, UniProt Q8IWQ3)",1 µM,-2%

# Other studies, line by line
SMILES,tested on,assay,test system,conditions,quantity,result
Cc1ncsc1-c1ccc(C(CO)NC(=O)C2CC(O)CN2C(=O)C(C(C)C)n2cc(-c3ccc(COc4c(-c5c(C)c(F)cc6[nH]ncc56)c(C5CC5)cc5c(N6CC7CC6CN7)nc(OC6CCOCC6)nc45)cc3)nn2)cc1 (centres unmarked),"von Hippel-Lindau disease tumor suppressor, with Elongin B/C (VHL, Homo sapiens, UniProt P40337)","SPR, single-cycle",immobilized VCB complex,"binary, geometric mean",kon,275000 M⁻¹ s⁻¹
Cc1ncsc1-c1ccc(C(CO)NC(=O)C2CC(O)CN2C(=O)C(NC(=O)c2ccc(COc3c(-c4c(C)c(F)cc5[nH]ncc45)c(C4CC4)cc4c(N5CC6CC5CN6)nc(OC5CCOCC5)nc34)cc2)C(C)C)cc1 (centres unmarked),"GTPase KRas, GDP-bound (KRAS, Homo sapiens, UniProt P01116, G12D)","SPR, single-cycle",immobilized KRAS G12D,binary,kon,575000 M⁻¹ s⁻¹ and 451000 M⁻¹ s⁻¹
Cc1ncsc1-c1ccc(C2(NC(=O)C3CC(O)CN3C(=O)C(NC(=O)c3ccc(COc4c(-c5c(C)c(F)cc6[nH]ncc56)c(C5CC5)cc5c(N6CC7CC6CN7)nc(OC6CCOCC6)nc45)cc3)C(C)C)CC2)cc1 (centres unmarked),AsPC-1,"cell growth, CellTiter-Glo",,overall of experiments,IC50,0.307 µM
Cc1ncsc1-c1ccc(C2(NC(=O)C3CC(O)CN3C(=O)C(NC(=O)c3ccc(COc4c(-c5c(C)c(F)cc6[nH]ncc56)c(C5CC5)cc5c(N6CC7CC6CN7)nc(OC6CCOCC6)nc45)cc3)C(C)(C)C)CC2)cc1 (centres unmarked),AsPC-1,in-cell ELISA,,"10 µM, individual replicates",phospho-ERK1/2 level,14.4% and 22.3% and 14.5% and 8.56% and 12.9% and 9.01%
